Measurements of several laboratories.
Parts stem from different laboratories: compare values within a part only.

Study 1
Target: Sal-like protein 4, full length isoform A (SALL4, Homo sapiens, UniProt Q9UJQ4, residues 1-1053)
Chain of UniProt Q9UJQ4 (whole entry, looked up): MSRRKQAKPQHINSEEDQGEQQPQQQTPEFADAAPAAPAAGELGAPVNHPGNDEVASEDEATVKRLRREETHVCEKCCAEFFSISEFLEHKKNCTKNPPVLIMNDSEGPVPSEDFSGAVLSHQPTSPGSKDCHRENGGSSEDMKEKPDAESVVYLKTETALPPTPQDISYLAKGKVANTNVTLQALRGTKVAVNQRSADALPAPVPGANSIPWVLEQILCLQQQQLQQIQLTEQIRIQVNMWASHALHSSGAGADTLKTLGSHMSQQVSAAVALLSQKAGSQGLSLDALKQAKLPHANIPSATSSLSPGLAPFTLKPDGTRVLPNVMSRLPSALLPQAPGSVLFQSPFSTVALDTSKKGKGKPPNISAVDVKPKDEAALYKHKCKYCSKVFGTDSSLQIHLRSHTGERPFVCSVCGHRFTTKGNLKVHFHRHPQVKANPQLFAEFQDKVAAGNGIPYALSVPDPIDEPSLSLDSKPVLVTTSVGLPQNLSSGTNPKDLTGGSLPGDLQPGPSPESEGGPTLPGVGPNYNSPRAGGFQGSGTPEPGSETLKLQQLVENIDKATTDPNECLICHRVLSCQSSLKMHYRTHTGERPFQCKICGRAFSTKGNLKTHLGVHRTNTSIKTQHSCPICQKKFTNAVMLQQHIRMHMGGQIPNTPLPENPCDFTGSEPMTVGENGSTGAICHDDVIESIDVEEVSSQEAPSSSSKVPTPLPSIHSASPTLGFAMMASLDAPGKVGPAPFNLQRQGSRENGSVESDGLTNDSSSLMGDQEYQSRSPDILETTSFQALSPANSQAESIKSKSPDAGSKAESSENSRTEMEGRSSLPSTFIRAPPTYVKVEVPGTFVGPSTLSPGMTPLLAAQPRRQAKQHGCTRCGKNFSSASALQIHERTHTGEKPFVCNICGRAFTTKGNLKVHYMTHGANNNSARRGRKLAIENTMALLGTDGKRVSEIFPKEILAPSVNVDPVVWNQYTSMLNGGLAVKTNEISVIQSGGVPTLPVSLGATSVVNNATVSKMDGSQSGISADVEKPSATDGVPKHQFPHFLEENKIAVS
Method: universal PBM
Molecule type: double-stranded DNA, one strand shown
Medium: in vitro
Tested at: 600 nM
Notes: 8-mer, flanks averaged, mean of replicates
Reading: higher = stronger binding
With `GCCACTGA` the E-score was -0.102.
`GCGATAAA` has an E-score of 0.0218.
`AGTGGGTA` gave an E-score of -0.133.
`CTTAGGTA` has an E-score of 0.0615.
`GGCGGCCA` has an E-score of -0.282.
For `GTCCGTGA`, the E-score was -0.228.
For `GCGGGTCC`, the E-score was -0.409.
With `ATGTATCC` the E-score was 0.153.
The E-score of `AACTTGCT` is reported as 0.0524.
The E-score of `GACTCATC` is reported as -0.082.
`CAACATCG` has an E-score of 0.0919.
With `GATCACCC` the E-score was -0.201.
`AGCTTTCG` has an E-score of -0.139.
The E-score of `ACTGGGTC` is reported as -0.241.
`AGGTACAA` has an E-score of 0.0603.
The E-score of `ATGGTCGC` is reported as 0.0293.
The E-score of `ATCGACCA` is reported as -0.133.
`GCCGAAAA` has an E-score of 0.00528.
With `AAGATCTC` the E-score was 0.0255.
For `GGGAGCTA`, the E-score was -0.233.
For `AGGTTAAG`, the E-score was -0.0228.
`CGAGACTC` has an E-score of -0.13.

Study 2
Target: RNA binding protein fox-1 homolog 2, RRM domain, GST-SBP tag (RBFOX2, Homo sapiens, UniProt O43251-10, residues 100-194)
Method: RNA Bind-n-Seq
Molecule type: RNA
Medium: in vitro
Tested at: 365 nM
Notes: natural RNA segment, single round, ends assumed
Reference: no-protein control
Reading: higher = stronger binding
Shared flanks, not repeated: GGGAGUUCUACAGUCCGACGAUC … UGGAAUUCUCGGGUGCCAA
Residues (chain): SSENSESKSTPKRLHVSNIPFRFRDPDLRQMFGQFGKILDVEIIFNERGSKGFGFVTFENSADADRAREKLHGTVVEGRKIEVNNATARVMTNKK
For `UCUAAGGGAAGAGUCUGGCCUGCUCUCUGACUUGCACCUUCCUCGCCCUUAGAAGCAGGGAUUGCAAAGCUUAGGGCCCCCGUGCCAAGCAAAGACCAAAGAUGCAUCAG`, “RBNS enrichment (R)” read 0.303.
For `AGGGAUAGUCAUUUCUCAAAUGAGUUCUCUAAUAGAGAUUUUGUUCCUACAAUGUAGUCUGCACUGAAAAGAGAAUAGAGGAGGGUAGGGUGGUCAUUUUGCAGGAAUUU`, “RBNS enrichment (R)” read 0.881.
For `AUAACAAAACACUGCUUCAAGAUUUACUUUUAAAUCUAAUUUAAGGGGUGUUUUUACUGUGUUUUUGUCGUUUCCUUUUUACGUGUGCUGUGAUGAAAGAGAAAAAUGCA`, “RBNS enrichment (R)” read 4.43.
`AUAUUUGGAGCUAUCAGUGCUUUGUUGAUUUAGAUGAUGACUCAAGAUUUUUUCUGGUCCAUUUCCCAUUUCCUUUUCUUCCCUGACCCCCAUACCCUCACCCUUAAAAU` — result for “RBNS enrichment (R)”: 1.6.
For `AAAUUCGUUUGUCUUCAAUAUAGUUUGAAGAUUAGUCAUUCCAUGAAGGAACAGCCUCUUGAGCUGGGUAUGGUGGCACCCAUCUGUGAGUCCAGCAUUUGGGUAUUGAG`, “RBNS enrichment (R)” read 0.764.
For `AGAGCAGUGGGGGCUGCCCUCUGUAGAGCUGUGAGGGAGAGGCUUUCUGAUCAGAUGAACAUCUGUCCAAGCCAAAAUUCUGCAGAGGGCAGGUGAGCUUUGCUUAUGUA`, “RBNS enrichment (R)” read 0.961.
Under “RBNS enrichment (R)”, `GUGUCUCCCUUAGAUGAGAUCUAGACGCCCCCAAAUCCUUGAGAUGUGGGUAUAGCUCAGGGUAAGCUGCUCUGAGGUAAAGGUCCAUGAACCCUGCCCCACUCCUGUCA` is recorded as 0.239.
`AGCUCUGUCUCCCCACUCUUGCUGUUGUGUUGUCCUUGUGAAUGUAUGGCUGACCCACUCCAGGCCAAGCAGCUUAACAGCAGGCUUGCUGUUAAGUCCCAAGUCCGUCA` — result for “RBNS enrichment (R)”: 1.09.

Study 3
Target: Interferon regulatory factor 3, full length, phosphomimetic (IRF3, Homo sapiens, UniProt Q14653, residues 1-427, S386D/S396D/S398D/S402D/T404D/S405D)
Method: protein-binding microarray
Molecule type: double-stranded DNA, one strand shown
Medium: in vitro
Tested at: 2540 nM top
Notes: 60-bp whole probe
Together with: salmon DNA 0.4 mg/ml
Reference: random background probes
Reading: higher = stronger binding
Shared flanks, not repeated: GCCTAGCAC … GTCTTGATTCGCTTGACGCTGCTG
Target sequence (chain): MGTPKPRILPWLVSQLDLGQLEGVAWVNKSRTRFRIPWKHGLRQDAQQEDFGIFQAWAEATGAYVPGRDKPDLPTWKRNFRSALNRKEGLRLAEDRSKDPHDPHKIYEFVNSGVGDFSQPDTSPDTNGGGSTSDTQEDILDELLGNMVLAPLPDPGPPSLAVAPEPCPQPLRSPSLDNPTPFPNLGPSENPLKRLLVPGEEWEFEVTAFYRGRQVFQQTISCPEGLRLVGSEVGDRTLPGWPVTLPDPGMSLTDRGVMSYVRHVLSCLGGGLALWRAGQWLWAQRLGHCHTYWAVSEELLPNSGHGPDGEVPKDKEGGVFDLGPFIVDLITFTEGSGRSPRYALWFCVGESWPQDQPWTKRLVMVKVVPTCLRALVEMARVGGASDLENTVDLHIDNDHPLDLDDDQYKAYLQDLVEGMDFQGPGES
`GACGAACTGGGGAGTGGAGACGTGCTA` — result for “fitted relative affinity”: -0.542 z-score.
`TCAACTTTATGTAGGAAACTGTGCTAG` — result for “fitted relative affinity”: 0.242 z-score.
For `TTAAGTTTCGGTTCCGGTTAGTGCTAG`, “fitted relative affinity” read 10.9 z-score.
Under “fitted relative affinity”, `TTAGGTATCCTAGTGCTTTAGTGCTAG` is recorded as 2.34 z-score.
`TCAATTTTGAGACTCATACTGTGCTAG`: “fitted relative affinity” 0.311 z-score.
For `TCATATATATCATTTAAACTGTGCTAG`, “fitted relative affinity” read 1.01 z-score.
`GACGGTTCCAGTTTCGGGACGTGCTAG` — result for “fitted relative affinity”: 5.15 z-score.
For `TTAGGTCTCGGTTCCGGTTAGTGCTAG`, “fitted relative affinity” read 2.74 z-score.
For `TTAGGACTAGACTATCGGTTAGTGCTA`, “fitted relative affinity” read -0.37 z-score.
`TCATTTCTCTCTGTGACACTGTGCTAG` — result for “fitted relative affinity”: 2.49 z-score.
`GAAGATTTCAGTTCCGAGACGTGCTAG` — result for “fitted relative affinity”: 2.84 z-score.
Under “fitted relative affinity”, `TTAGGACTAGGTTTCGGTTAGTGCTAG` is recorded as 4.12 z-score.
Under “fitted relative affinity”, `TCAATTTCCATTTTCTAACTGTGCTAG` is recorded as 6.29 z-score.
For `TCATCATTGTTTTTCATACTGTGCTAG`, “fitted relative affinity” read 0.617 z-score.
For `GGCGGTTTCCTACTGCTGACGTGCTAG`, “fitted relative affinity” read 5.35 z-score.
`TTAAAACTGAGTTTCGATTAGTGCTAG`: “fitted relative affinity” 2.74 z-score.
`ACCCTTGAGTGGTCCAGAGTGTGCTAG`: “fitted relative affinity” -0.0257 z-score.
`TTAGGACTGGGGTATCGGATAGTGCTA`: “fitted relative affinity” -0.289 z-score.
`TTAGATTTCGGGTTTCGCTTAGTGCTA` — result for “fitted relative affinity”: 2.76 z-score.

Study 4
Target: Histone acetyltransferase KAT6A, both winged helices, GST fusion (KAT6A, Homo sapiens, UniProt Q92794, residues 1-181)
Method: protein binding microarray
Molecule type: double-stranded DNA, one strand shown
Medium: in vitro
Tested at: not given
Notes: 8-mer, flanks averaged, mean of 2 arrays, mostly near background
Reference: not given
Reading: higher = stronger binding
Target sequence (chain): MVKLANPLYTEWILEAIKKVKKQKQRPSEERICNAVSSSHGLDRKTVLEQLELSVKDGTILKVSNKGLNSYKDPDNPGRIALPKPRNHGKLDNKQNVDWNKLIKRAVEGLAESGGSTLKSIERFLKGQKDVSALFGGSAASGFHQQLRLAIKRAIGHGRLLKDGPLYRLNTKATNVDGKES
The E-score of `CCAAAAGG` is reported as -0.127.
`AACTGTAG` gave an E-score of -0.247.
The E-score of `GCAGACAC` is reported as 0.0309.
`GAATGGCC` has an E-score of -0.0661.
`GGGCGCAC` has an E-score of 0.134.
With `CAAACACC` the E-score was 0.0406.
`GATTACGC` gave an E-score of 0.142.
The E-score of `CCGGCACC` is reported as 0.228.
`AAGATAGG` has an E-score of -0.249.
The E-score of `AGGCGCAC` is reported as 0.154.
`AAATGAGG` has an E-score of -0.258.
`AATATTTC` has an E-score of -0.0575.
With `ATTGTATC` the E-score was -0.0901.
The E-score of `GACTTCTC` is reported as -0.118.
The E-score of `AACACTTA` is reported as -0.119.
The E-score of `GTTCTATA` is reported as -0.0771.
For `CACGGGAC`, the E-score was 0.207.
`ACGATGCT` gave an E-score of -0.0822.
With `AGCTACCT` the E-score was 0.008.
`GCAGAGAA` has an E-score of 0.105.
The E-score of `CGAGCCGA` is reported as 0.00898.
With `TCAAGCCA` the E-score was -0.0144.
`GCCTGATA` has an E-score of -0.0313.
`CTTATCTA` has an E-score of -0.05.
With `AAGAGACC` the E-score was -0.029.

Excerpt of the above (study 1):
The E-score of `ATGGTCGC` is reported as 0.0293.
With `GATCACCC` the E-score was -0.201.
`AGGTACAA` has an E-score of 0.0603.
For `GTCCGTGA`, the E-score was -0.228.
With `GCCACTGA` the E-score was -0.102.
The E-score of `ATCGACCA` is reported as -0.133.
With `AAGATCTC` the E-score was 0.0255.
